Published values of several laboratories.
Every numbered part comes from another study and shows a few of its results, in no order.

Sample 1 — method: protein-binding microarray; molecule type: double-stranded DNA, one strand shown; medium: in vitro; tested at: 250 nM; setting: 60-bp whole probe; added: salmon DNA 0.4 mg/ml; relative to: random background probes; reading: higher = stronger binding; shared flanks, not repeated: GCCTAGCAC … GTCTTGATTCGCTTGACGCTGCTG
Target: Interferon regulatory factor 7, full length, phosphomimetic (IRF7, Homo sapiens, UniProt Q92985, residues 1-503, S101K/S471D/S472D/S475D/S476D/S477D/S483D/S484D/S487D)
UniProt Q92985, sequence (whole entry, unmodified, looked up): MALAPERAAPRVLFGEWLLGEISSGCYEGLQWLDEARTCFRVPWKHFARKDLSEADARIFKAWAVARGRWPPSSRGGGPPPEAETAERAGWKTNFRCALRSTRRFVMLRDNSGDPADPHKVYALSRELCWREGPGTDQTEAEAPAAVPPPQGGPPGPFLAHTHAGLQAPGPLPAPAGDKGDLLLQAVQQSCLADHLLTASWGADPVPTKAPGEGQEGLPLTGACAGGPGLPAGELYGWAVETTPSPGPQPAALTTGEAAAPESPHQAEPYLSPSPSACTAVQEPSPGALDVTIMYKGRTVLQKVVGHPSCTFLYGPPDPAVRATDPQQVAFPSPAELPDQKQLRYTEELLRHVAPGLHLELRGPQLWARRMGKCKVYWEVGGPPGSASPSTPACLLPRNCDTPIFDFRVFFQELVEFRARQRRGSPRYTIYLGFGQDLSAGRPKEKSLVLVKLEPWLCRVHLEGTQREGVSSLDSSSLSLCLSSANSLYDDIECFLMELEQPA
Strand	log fluorescence [z-score]
TTAGGTATCCTAATCCTTTAGTGCTAG	0.413
TTAGATATCAGACTGGAATAGTGCTAG	-0.0999
TCATATTTGCTTCAGGTACTGTGCTAG	0.801
GACGAAGTGGGGACTGGAGACGTGCTA	-0.798
TTAGATATCAGACTGGACTAGTGCTAG	-0.0996
GACGATTTCGGGACCGGAGACGTGCTA	0.0336
GACGAACTGAGTCTCAAGACGTGCTAG	-0.133
GTATGACTCTGCCTCTAACTGTGCTAG	0.0337
GAAGGACTGGACTATCGGGACGTGCTA	-0.943
GACGAACTGAGTCTCGACACGTGCTAG	0.231
GACGAACTGAGTCTCGAAACGTGCTAG	0.683
CTCGTTTACATTTTCCAAATGTGCTAG	2.2
GACGGTATCGGGTATCGGGTCGTGCTA	0.788
GATGATATCGGGTTTCGAGACGTGCTA	2.4
TTAGGACTGGGTTTCGGTAAGTGCTAG	1.94
GACGATATCAGTATCGAGACGTGCTAG	0.102
GACGGACTGAACACTGGGGACGTGCTA	-0.708
GAGGGTTTCGGGTTTCGGGACGTGCTA	9.93
GACGGTCTCCTTTACCTGACGTGCTAG	0.355
GACGTTTTCGGGTTTCGGGACGTGCTA	5.64
GACGGACTGCTTTTCATGACGTGCTAG	-0.233
TCAGGTCTCGCTTCATCACTGTGCTAG	4.65
GGCCCTTTGCTTTCCTGATGGTGCTAG	-0.122
TTAGGTATTCTTATCCTTTAGTGCTAG	0.308
GACGATTTCAGCCTCGAGACGTGCTAG	0.364

Sample 2 — method: protein binding microarray; molecule type: double-stranded DNA, one strand shown; medium: in vitro; tested at: not given; relative to: not given; reading: higher = stronger binding
Target: Histone acetyltransferase KAT6A, winged helix 2, GST fusion (KAT6A, Homo sapiens, UniProt Q92794, residues 85-181)
Setting: 8-mer, flanks averaged, mean of 2 arrays, mostly near background
Residues (chain): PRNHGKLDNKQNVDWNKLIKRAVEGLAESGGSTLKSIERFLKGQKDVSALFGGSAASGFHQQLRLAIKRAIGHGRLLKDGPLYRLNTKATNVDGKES
Strand	E-score
ACGGTCAA	-0.0769
ATATAGCG	-0.164
AATGACGG	-0.103
CAGAAATC	0.0377
GTATAATA	0.227
TTACCTAA	-0.0621
GGTGCCGA	0.0247
AGGGCCTG	0.0658
CCCGTCTC	0.0317
CTCTATGA	0.071
CGACAGCG	0.0723
GACCATTA	-0.0923
GCGACCCC	-0.0136
AAGCTAAA	0.0964
ACCCGGCA	0.102
AATCCGTC	-0.04
ACTTAAGT	-0.0787
ACGGTCTA	-0.154
AGTGCCTG	0.0586
GGTAACGA	-0.139
GTACTGAA	-0.015

Sample 3 — method: RNA Bind-n-Seq; molecule type: RNA; medium: in vitro; tested at: 365 nM; relative to: no-protein control; reading: higher = stronger binding
Target: RNA binding protein fox-1 homolog 2, RRM domain, GST-SBP tag (RBFOX2, Homo sapiens, UniProt O43251-10, residues 100-194)
Setting: natural RNA segment, single round, ends assumed
Shared flanks, not repeated: GGGAGUUCUACAGUCCGACGAUC … UGGAAUUCUCGGGUGCCAA
Construct (chain): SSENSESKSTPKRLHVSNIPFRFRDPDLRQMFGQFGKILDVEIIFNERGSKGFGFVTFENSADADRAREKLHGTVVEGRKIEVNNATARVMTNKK
Strand	RBNS enrichment (R)
CCAAGCCUCAGGCUGGGCUCAUUCAUAUAAUUGCAAUAAAUGGUACGUGUCCAUUUGGACAGCAGACACUUUGGUGUACUUGUGCAGUCUCUUUUUGGUCUGGCCAUGUC	0.353
UGGAAUUAAUCACUCAACAGGUAUAGUAUUACGACUCAUGUUUACUUUUUAAAAUGAUUUAGACCGAUUUUCAGAUUUUAUUUCGUUAUGAUUAAAGAUGUCUCAUGUAC	0.381
GCAUAGGAGUCCGUCUGUCUUUGGACUGUCUCCUCUGCUGUUGUUCCUGCUCUCUCCGUUUCUGUCUAGAUGUCAGGAAAAGGUUUAAUGUUUAAUAUUUAAACAAAAUA	0.214
UUUGUUUGUUUGUUUGUUUGUUUGUUUGUUUUUUCCAGACAGGAUUUCUCUGUGUAGCCCUGGCCGUCCUGGAACUCACUUUGUAGAUCAGGCUGGCCUCGAACUCAGAA	31.9
GGGGAGGGGGUGGCUGUGGUCCAGGGACCCCAGGCCCUGAUUCCUGUGCCUGGCGUCUGUCCCGGCCCCGCCUGUCAGAAGAUGAACAUGUAUAGUGGCUAACUUAAGGG	0.374
ACUCUCCACUAAUUAUACUUAAAAGUCCAAAAAUUUUUUCUUUAGUAACAGACUUAGGUACUGCUAAGCAGUUAUUAACACAAUAUUCCUUAGUUUUCAUAUGUUGGUUA	1.25
UAAUUCUAUAGAGAAUUCUUGCCUCCCAUUCAGGACUGGCCUUCUAUACAGUGAGAUGGUCCAGUAAGAAAUAAUUUUUAUUAGUGUUUUUUCUAUUUUGAGAAUUAUUU	0.958
UAAAGGGGACUCUCACUAGGCUAGAGGCCGCCUUCUGCUCCUCUCUUGCACUGACUCUGUGGAGGGGGUCUUCAUUCACUAAACUGACCCAGGAUGGAACACGAAACCAC	0.447
GUAUUGCUCUUUCAUCUUAAACACUUUCGAGGAUUUGCAGUGCGUCUAGCACCUAGAUUACAGCCAGGAACAUUGGUUAAGAACUGUUGGAAACAAAACUAAAAGCAAAC	0.221
CUCCUCCACCAUCACAAUCUCACCCAAACUCCUGCUCACUCAAGCAAAAGCAGCCUCUGGCCUUCCCUCCACCGCUUUGCUCCAUCUGGCUUACCACUCUCCAGGGCCUC	1.23
UAUUCCCUGGUAUCAGUGUAAUGGAAAGUAGCAGCAGAGAGGAAGUUAAUGGCAGGCAGGCCCAUCUGGCUAUCCCGCAGUUGGGGAAACCCUUGCAAAGUAAACAGCUU	0.289
UUUUGUGCCUGCUGGGAGUAAUUCCUUUAGCAAUUAAGUAUUUGGUAGCUGAAUAAGGGGUCAGAACUUCUGAAACCAGAGAUCUGUAAUCAUCUCUAUUGGCCUGGGGU	0.589

Sample 4 — method: RNA Bind-n-Seq; molecule type: RNA; medium: in vitro; tested at: 200 nM; setting: whole 134-nt RNA, ends assumed; added: 150 mM KCl; relative to: input library; reading: higher = stronger binding
Target: Fragile X messenger ribonucleoprotein 1, C-terminal low-complexity region (Fmr1, Mus musculus, UniProt P35922)
Shared flanks, not repeated: GGGAGUUCUACAGUCCGACGAUC … UGGAAUUCUCGGGUGUCAAGG
Strand	log2 enrichment
GUCCUGUGCUACACAUCGUAUGUACCGAAUCGGGAAAAAAAGGGAAAAAGGGUUUGGGAAAGUAUUAUGUUACGCCGUUCGGAUCUGCAC	-0.445
CAAGUCCUGUGCUACACAUCGUAUGUACCGAAUCGGUUUGGUUUGGGGUUUGGGGAAAGUAUUAUGUUACGCCGUUCGGAUCUGCACUUC	-0.025
UAACUUUAGAGGAGGAUCUGAUGGAUAUGGCAGUGGACGUGGAUUUGGGGAUGGCUAUAAUGGGUAUAGAGGAGGACCUGGAGGUGGCAA	0.245
GCAGGAAGUAAAAACAAAUGGAAAAACUUCGGAUAGUGGCAGGGGUGGGGGUUGCUAAGGAAAGGGUGGGAUGGGAGUGGGUAAAGAGUU	-0.0616
AAGUCCUGUGCUACACAUCGUAUGUACCGAAUCGGUUUUUUUGGUUUUUGGUUUGGAAAGUAUUAUGUUACGCCGUUCGGAUCUGCACUU	-0.835
CAAGUCCUGUGCUACACAUCGUAUGUACCGAAUCGGGAGGGAAAGGGUUUUUGGGAAAGUAUUAUGUUACGCCGUUCGGAUCUGCACUUC	0.744
CCUGUGCUACACAUCGUAUGUACCGAAUCGGGCCCCCCCGGCCCCCCCGGCCCCCCCGGGGAAAGUAUUAUGUUACGCCGUUCGGAUCUG	-0.497
GCAGGAAGUAAAAACAAAUGGAAAUGCUUCGGAUAGUGGCAGGGGUGGGGGUUGCUAAGGAAAGGGUGGGAUGGGCGUGGGUAAAGAGUU	-0.0351
AGUCCUGUGCUACACAUCGUAUGUACCGAAUCGGAAAAAAAGGAAAAAGGAAAAAGGAAAGUAUUAUGUUACGCCGUUCGGAUCUGCACU	-0.879
GCAGGAAGUAAAAACAAAUGGAAAUGCUUCGGAUAGUGGCAGGGGUGGGGGUUGCUAAGGAAAGGGUGGGAUGGGAGUGGGUAAAGAGCU	0.152
CAAGUCCUGUGCUACACAUCGUAUGUACCGAAUCGGGGCCGGGCCGGGGCCGGGGAAAGUAUUAUGUUACGCCGUUCGGAUCUGCACUUC	0.139
UUCCUCAAGUCCUGUGCUACACAUCGUAUGUACCGAAUCGGUGGAGGAGGAAAGUAUUAUGUUACGCCGUUCGGAUCUGCACUUCCAGCA	-0.922
CCUCAAGUCCUGUGCUACACAUCGUAUGUACCGAAUCGGAGGAAAGGUUUGGAAAGUAUUAUGUUACGCCGUUCGGAUCUGCACUUCCAG	-0.269
UAACUUUAGAGGAGGAUCUGAUGGAUAUGGCAGUGGACGUGGAUUUGGGGAUGGCUAUAAUGGGUAUGGAGGAGGACCUGGAGCUGGCAA	0.119

For quick reference, copied from above (sample 1):
Strand	log fluorescence [z-score]
GATGATATCGGGTTTCGAGACGTGCTA	2.4
TTAGGACTGGGTTTCGGTAAGTGCTAG	1.94
GACGATATCAGTATCGAGACGTGCTAG	0.102
GACGGACTGAACACTGGGGACGTGCTA	-0.708
